Literature values, collected from citations in different studies.
Lines come from different studies, so protocols differ. ± marks the error that the study gave.

The chains behind the UniProt entries cited, without tags or fusion partners.
UniProt P41143, whole entry: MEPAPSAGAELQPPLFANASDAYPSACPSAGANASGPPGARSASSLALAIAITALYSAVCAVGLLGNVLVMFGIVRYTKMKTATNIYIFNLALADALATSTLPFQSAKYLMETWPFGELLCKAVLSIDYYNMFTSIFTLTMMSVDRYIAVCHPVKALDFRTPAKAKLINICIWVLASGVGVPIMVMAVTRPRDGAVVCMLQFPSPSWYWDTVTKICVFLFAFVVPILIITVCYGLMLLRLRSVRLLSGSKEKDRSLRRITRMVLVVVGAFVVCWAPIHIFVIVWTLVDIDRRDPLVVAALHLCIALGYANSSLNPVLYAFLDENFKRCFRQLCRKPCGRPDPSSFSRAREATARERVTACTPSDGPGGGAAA
UniProt Q62645, whole entry, looked up: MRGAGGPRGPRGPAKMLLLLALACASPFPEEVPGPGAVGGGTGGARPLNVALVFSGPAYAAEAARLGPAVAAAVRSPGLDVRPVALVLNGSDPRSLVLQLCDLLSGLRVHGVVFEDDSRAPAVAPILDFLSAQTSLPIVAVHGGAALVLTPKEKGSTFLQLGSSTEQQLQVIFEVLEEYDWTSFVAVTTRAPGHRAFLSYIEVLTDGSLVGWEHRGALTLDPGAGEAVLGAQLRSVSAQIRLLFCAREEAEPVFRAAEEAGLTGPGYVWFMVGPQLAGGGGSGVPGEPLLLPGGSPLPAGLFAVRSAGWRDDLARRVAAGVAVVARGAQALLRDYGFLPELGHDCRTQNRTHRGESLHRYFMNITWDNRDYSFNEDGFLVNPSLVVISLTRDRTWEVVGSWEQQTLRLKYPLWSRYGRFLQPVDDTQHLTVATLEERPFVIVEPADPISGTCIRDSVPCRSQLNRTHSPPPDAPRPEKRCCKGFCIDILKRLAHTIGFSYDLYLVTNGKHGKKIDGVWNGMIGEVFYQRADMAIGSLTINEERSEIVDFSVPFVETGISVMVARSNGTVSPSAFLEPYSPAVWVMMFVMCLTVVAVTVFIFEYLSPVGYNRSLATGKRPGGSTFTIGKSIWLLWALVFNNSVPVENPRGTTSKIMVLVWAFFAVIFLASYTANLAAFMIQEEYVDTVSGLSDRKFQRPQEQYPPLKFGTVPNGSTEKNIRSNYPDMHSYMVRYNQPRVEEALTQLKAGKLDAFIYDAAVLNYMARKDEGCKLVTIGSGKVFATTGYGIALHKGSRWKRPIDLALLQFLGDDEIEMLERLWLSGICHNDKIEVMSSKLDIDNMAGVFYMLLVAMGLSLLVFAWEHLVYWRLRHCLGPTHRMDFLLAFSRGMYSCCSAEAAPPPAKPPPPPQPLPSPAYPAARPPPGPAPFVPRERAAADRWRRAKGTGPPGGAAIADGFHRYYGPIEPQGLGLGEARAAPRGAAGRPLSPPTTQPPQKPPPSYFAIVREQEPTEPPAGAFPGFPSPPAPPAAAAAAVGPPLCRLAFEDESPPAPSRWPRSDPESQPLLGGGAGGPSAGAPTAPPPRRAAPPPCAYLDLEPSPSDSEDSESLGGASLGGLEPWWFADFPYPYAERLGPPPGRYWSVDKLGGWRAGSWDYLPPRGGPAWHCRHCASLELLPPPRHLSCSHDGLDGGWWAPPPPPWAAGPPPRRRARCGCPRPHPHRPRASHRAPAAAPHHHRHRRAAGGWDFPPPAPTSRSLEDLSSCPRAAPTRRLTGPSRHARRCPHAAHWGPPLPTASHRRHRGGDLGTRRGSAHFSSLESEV

For `NC(=O)[C@H](Cc1ccccc1)NC(=O)[C@H](CCCN=C(N)N)NC(=O)C12CC3CC(CC(C3)C1)C2`, the Ki was > 5 µM (OPRD1 (Homo sapiens, UniProt P41143); binding).
For `O=C(O)c1cccc(Nc2cc(N3CCCCCC3)c3noc4c3c2C(=O)c2ccccc2-4)c1`, the IC50 was 10 µM (human uPAR-uPA interaction; protein-protein interaction, inhibitor).
`CN1CC[C@]23c4c5ccc(O)c4O[C@H]2[C@@H](O)C=C[C@H]3[C@H]1C5` gave an ED50 of 3.94 mg/kg (antinociception, hot plate test; Sprague-Dawley rat, male; subcutaneous).
For `COc1ccc(OC[C@H]2c3cccn3CC(=O)N2Cc2cccc(F)c2)cc1`, the doubling concentration was 2 µM (Glutamate receptor ionotropic, NMDA 2D, with GluN1 (Rattus norvegicus, UniProt Q62645); ion current, positive allosteric modulator; GluN1/GluN2D receptors; with: glutamate and glycine).
Under “convulsive seizure suppression”, `CN1C(=O)CN=C(c2ccccc2)c2cc(Cl)ccc21` is recorded as “no effect” (rat lithium-pilocarpine status epilepticus; 10 mg/kg, 30 min after SE onset).
With `CCCN(CCC)c1c(C#N)cc(S(=O)(=O)Nc2ccccc2)cc1C#N` the IC50 was 4.4 ± 0.09 µM (Leishmania donovani; cell growth; axenic amastigotes).
For `NC(=O)c1ccc(-c2cc(C(=O)O)cc(-n3cc(-c4ccc(C(F)(F)F)cc4)nn3)c2)cc1`, the half-life was > 4 h (simulated intestinal fluid).
`O=[N+]([O-])c1ccccc1O` has an IC50 of 79.1 µM (heterotrophic aerobic bacteria; mixed culture).
The IC50 of `CCN1CC(n2nccc2-c2cc(C(F)(F)F)ccc2Oc2ccc(S(=O)(=O)Nc3ncns3)cc2C#N)C1` is reported as 0.001 µM (Nav1.7; sodium current, voltage clamp).
For `NC(=O)N1c2ccccc2C=Cc2ccccc21`, the ED50 was 50 mg/kg (convulsive seizures; rat lithium-pilocarpine status epilepticus; 30 min after SE onset).
For `C=CC(=O)N1C[C@H](c2ccc(Br)cc2)[C@@H]1C(=O)Nc1cccc2cccnc12`, the target engagement was > 90% (22Rv1; activity-based protein profiling, item: cysteine 271; 5 µM, 3 h; relative to: DMSO).
For `CCN(CC)Cc1cc(Nc2ccnc3cc(Cl)ccc23)ccc1O`, the pKa was 8 to 9 (phenol group).
The ED50 of `O=C1CN=C(c2ccccc2Cl)c2cc([N+](=O)[O-])ccc2N1` is reported as > 40 mg/kg (convulsive seizures; rat lithium-pilocarpine status epilepticus; 30 min after SE onset).
Under viral replication, `CCCCN1C(=O)C(CC2CCCCC2)NC(=O)C12CCN(Cc1ccc(Oc3ccccc3)cc1)CC2.Cl` (stereo not shown) is recorded as “inhibited” (HIV-1; infectivity and replication; laboratory, clinical, drug-resistant strains).
`CCC1(c2ccccc2)C(=O)NC(=O)NC1=O` gave an ED50 of 31 mg/kg (convulsive seizures; rat lithium-pilocarpine status epilepticus; 0 min after SE onset).
For `COCO[C@H]1C[C@@H](C(=O)OC)[C@]2(C)CC[C@H]3C(=O)O[C@H](c4ccoc4)C[C@]3(C)[C@H]2C1=O`, “duration of antinociception” read > 2 h (rodents; intraperitoneal, dose not given).

Repeated from above:
The ED50 of `O=C1CN=C(c2ccccc2Cl)c2cc([N+](=O)[O-])ccc2N1` is reported as > 40 mg/kg (convulsive seizures; rat lithium-pilocarpine status epilepticus; 30 min after SE onset).
